Measured values from different studies.
Parts stem from different laboratories: compare values within a part only.

Sample 1
Target: RNA binding protein fox-1 homolog 2, RRM domain, GST-SBP tag (RBFOX2, Homo sapiens, UniProt O43251-10, residues 100-194)
Method: RNA Bind-n-Seq
Molecule type: RNA
Sample: in vitro
Concentration: 365 nM
Notes: natural RNA segment, single round, ends assumed
Baseline: no-protein control
Reading: higher = stronger binding
Shared flanks, not repeated: GGGAGUUCUACAGUCCGACGAUC … UGGAAUUCUCGGGUGCCAA
Construct (chain): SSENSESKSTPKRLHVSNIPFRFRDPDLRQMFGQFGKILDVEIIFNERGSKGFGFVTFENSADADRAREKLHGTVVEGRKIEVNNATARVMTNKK
| Strand | RBNS enrichment (R) |
| --- | --- |
| AUGUCUCUGUCUUAUCAAUAAUGAGGCUUAAAAAAUACUGGAUUUGAAUGGCUGCCGUUUUUUCAAAGCAAUAUGAAUUUGAUGAGUUUGUUUUAUGCCAUUAGGUGGCG | 1.32 |
| AUCGGUGUUUUGAAUUGGUGCCUGCCUAUAGAGAUAUAUUCACAGUUCAAAAGUCAGGUGCUGAGAGAUGGUUUAAAGACAAAUUCAUGAAGGUAUAUUUUGUGUUAUAG | 1.93 |
| AUGAAAUAUUGUACUUUAAUUCAUUCAGGAAGCAAAUUGAGUGCCUAUAAGUGAGACACUGUGCUGCACUGGCUGAAGACUUAAUGCUGUUACUCUAGGUAGUUGGAUCC | 0.31 |
| CCACGUGGCUUCUUCGAUAGGAGCCACAACUUGGGGUGGGAAGAACUUGUCCCUCAGGCUUGUUGCCCUCUGCAGUUGAUCUCCAAAGUUUUAAACCUGUUAAAUUAAUU | 0.25 |
| UUGUGUAAUGGUUUUAUAUAUUAGCUUUGUAUAAGCUUUCAUGUAAGAGUCAUAUUUUUUGGCUUUGUAGAUAAAGACUUAAAUUUUUGUGCAAAAUAGUGGUGGUAAAG | 0.396 |
| UCCCUCUCUCCGUGCAGUAGCUGUGUGUCCGAGGUCAGUGUGCGGAAUCACAGCCAAGGACGUGAAGAGAUGUACGGGGGAAAGAGAAGCUGGGGAUUGGAUGAAAGUCA | 0.439 |
| AAGUCCUUUUCUUUCUUCUUGAGAGACCUAAAGAGAUACUGUAGCUUGUUUUUCUGAUGGCAAAUGGGAACUGUGACAAAGUGAAGUCCUUGUAAAGCGGUGAUACAACU | 0.506 |
| CUCAGUGAAGGCCCAUGAAGGAAAUUGGGACUAGUUUAUAGGAGAACGUAUCAAUACAGUUUAUAAAGCCAAGAAUUGCUAUGAUUUAAGACUAAGAUCUGUCUUUUUGG | 0.62 |

Sample 2
Target: Interferon regulatory factor 7, full length, phosphomimetic (IRF7, Homo sapiens, UniProt Q92985, residues 1-503, S471D/S472D/S475D/S476D/S477D/S483D/S484D/S487D)
UniProt Q92985, sequence (whole entry, unmodified, looked up): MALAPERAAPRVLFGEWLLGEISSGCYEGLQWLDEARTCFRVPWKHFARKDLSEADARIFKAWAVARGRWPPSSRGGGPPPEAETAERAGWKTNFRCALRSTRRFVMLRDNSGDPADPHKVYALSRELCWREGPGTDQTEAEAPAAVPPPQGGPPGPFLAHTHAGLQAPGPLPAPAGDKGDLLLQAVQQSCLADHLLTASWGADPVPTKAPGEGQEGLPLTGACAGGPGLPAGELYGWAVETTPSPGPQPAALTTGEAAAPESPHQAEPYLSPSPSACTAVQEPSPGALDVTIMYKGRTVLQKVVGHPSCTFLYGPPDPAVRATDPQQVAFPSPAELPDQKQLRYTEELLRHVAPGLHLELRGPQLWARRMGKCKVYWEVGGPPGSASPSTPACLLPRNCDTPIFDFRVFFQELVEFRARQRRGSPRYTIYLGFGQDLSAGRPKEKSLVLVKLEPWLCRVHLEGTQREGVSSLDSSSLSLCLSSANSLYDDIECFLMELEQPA
Method: protein-binding microarray
Molecule type: double-stranded DNA, one strand shown
Sample: in vitro
Concentration: 2200 nM top
Notes: 60-bp whole probe
With: salmon DNA 0.4 mg/ml
Baseline: random background probes
Reading: higher = stronger binding
Shared flanks, not repeated: GCCTAGCAC … GTCTTGATTCGCTTGACGCTGCTG
| Strand | fitted relative affinity [z-score] |
| --- | --- |
| GATGAACTGGGGTATCGAGACGTGCTA | 0.096 |
| GACGAACGGAGTATCGAGACGTGCTAG | -0.488 |
| GACGGACAGGGGTATCGGGACGTGCTA | -0.883 |
| GACGGCTCCCTTTTCCTGACGTGCTAG | 1.01 |
| GACGGACTGAGTATCGGGACGTGCTAG | -0.651 |
| GACGATTCCAGTATCGAGACGTGCTAG | 0.739 |
| GTTGGGGCGGGGCGGGGTGGGTGCTAG | 1.47 |
| TTTGGCTTTCCTTTATGTCCGTGCTAG | 2.7 |
| TTAGAACTTAGTCTCGATTAGTGCTAG | -0.08 |
| GACGGTCTCGGTTTCGGGAGGTGCTAG | 2.88 |
| GACGGTTTCGGTCTCGGCACGTGCTAG | 6.45 |
| TTAGAATTCGGGACTGGATTAGTGCTA | -0.534 |
| TTGAATCTCCCATTATATTTGTGCTAG | 0.986 |
| GAGGGTTCCGGTTTCGGGACGTGCTAG | 4.37 |
| TTAGGTTTCGGTTCCGATTAGTGCTAG | 10.2 |
| TCAGTTTCTCCTTTGTAACTGTGCTAG | 4.14 |
| TTAGCTCTCAGTCTCGATTAGTGCTAG | 0.557 |
| TTAGTTTTCCTTATCCTTTAGTGCTAG | 3.08 |

Sample 3
Target: Centromere-binding protein 1, full length, His-tagged (CBF1, Saccharomyces cerevisiae, UniProt P17106, residues 1-351)
UniProt P17106, sequence (whole entry, looked up): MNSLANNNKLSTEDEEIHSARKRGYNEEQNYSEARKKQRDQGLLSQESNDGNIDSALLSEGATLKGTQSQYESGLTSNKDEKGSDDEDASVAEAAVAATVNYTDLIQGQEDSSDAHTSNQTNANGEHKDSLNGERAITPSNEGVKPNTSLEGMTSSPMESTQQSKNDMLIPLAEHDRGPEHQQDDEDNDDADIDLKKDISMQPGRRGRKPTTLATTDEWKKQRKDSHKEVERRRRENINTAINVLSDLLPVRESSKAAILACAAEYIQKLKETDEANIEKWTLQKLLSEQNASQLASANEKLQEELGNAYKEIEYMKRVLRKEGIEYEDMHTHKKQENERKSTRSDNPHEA
Method: competition protein-binding microarray
Molecule type: double-stranded DNA, one strand shown
Sample: in vitro
Concentration: 2 µM
Notes: whole 60-bp probe, lowest competitor level
With: Pho4 competitor, 0.05 µM
Reading: higher = stronger binding
Shared flanks, not repeated: … GTCTTGATTCGCTTGACGCTGCTG
| Strand | fluorescence intensity [a.u.] |
| --- | --- |
| TGCGCAACAACTTGCCGCGTGGGTGTATGTCTAGAA | 78.6 |
| CGATGAAATCTTCTTCACGTTCAACTTGTCTGATAC | 87 |
| TCCAGGGGGATACTACACGTGTAAGGGTTGAGTATC | 892 |
| CGTCCTAGTGATTGGCACGTGGGTGCCATGAGGAAG | 1100 |
| CCAAGGATTGGGTGGCATGTGATATCCAGTCTTGAG | 403 |
| TGTTCACCCTCCTCTCACGTGTATCTGACTCGTATT | 888 |
| CTTGTCAAAATCCGTCACGTGGTGAAGGGTCTGGTT | 5000 |
| GGATTAATTGCGTATCAGCTGACAGAGGTAACAAAG | 855 |
| TGGACCTCTGACGGTAACGTGAAGAGCAATTTTTTC | 125 |
| TTGCTAGATTCGACGACCGTGTCTGTGGTAATATTT | 69.5 |
| TGACACCCCCCAACACACGTTCCGCCCACTTTTTTT | 122 |
| CGGGGTTAAGTTTGGGAGGTGGGTGGCTTGCAGCAG | 71.3 |
| ATTTGACAGCATTTTCACGTGCAAACTGGAAGGAAT | 1270 |
| GCTTTCGATTTTCCTCACGTGACGGCGTTTCTTGGC | 7040 |
| CTAACGAAGGTTTGTTTGGTGGGTGACAAGCCAAGT | 66.8 |
| TTGTAGTTGTTGCTGTTGAGGTGGCAGTTGAGAGCT | 69.9 |
| CTTCTGTAAATTTACCACGTGTTTTGACGCGCCCCG | 1320 |
| GACTTGAAAGAACAGCACGTTTTTGTCATCGCTTAC | 186 |
| AAAGCGGTAATTTGTCACAAAACTTCACATATCTAT | 96.2 |

Sample 4
Target: Sal-like protein 4, full length isoform B (SALL4, Homo sapiens, UniProt Q9UJQ4-2, residues 1-616)
Method: universal PBM
Molecule type: double-stranded DNA, one strand shown
Sample: in vitro
Concentration: not given
Notes: 8-mer, flanks averaged, mean of replicates
Reading: higher = stronger binding
| Strand | E-score |
| --- | --- |
| AAGTAAAC | 0.194 |
| ACGGCCAG | -0.222 |
| ATGCGCAC | 0.00016 |
| AGCTCTGA | -0.226 |
| AGCCACAC | -0.064 |
| AATGACAC | 0.168 |
| CTTTAGCA | -0.0335 |
| CCTCATAC | 0.142 |
| CAAAAGTC | -0.13 |
| CACCCTCG | -0.286 |
| CATATCGG | 0.192 |
| ATCCCCAC | -0.208 |
| CCGGGGCC | -0.385 |
| CACTACGC | -0.194 |
| CATGTGAC | 0.145 |
| CTAAGTCA | 0.0966 |
| ACGACAAG | -0.123 |
| GCGTTGTA | 0.145 |
| AGCGGCGC | -0.29 |
| CAGTAAAA | 0.249 |

Repeated from above (sample 4):
| Strand | E-score |
| --- | --- |
| ATCCCCAC | -0.208 |
| CTAAGTCA | 0.0966 |
| CACCCTCG | -0.286 |
| AGCCACAC | -0.064 |
| CCGGGGCC | -0.385 |
| CAGTAAAA | 0.249 |
| CATATCGG | 0.192 |
| ACGGCCAG | -0.222 |
| GCGTTGTA | 0.145 |
| AATGACAC | 0.168 |
